Assay results from different studies.
Parts stem from different laboratories: compare values within a part only. Changes are numbered by the printed parent chain.

Series 1 — method: protein-binding microarray; molecule type: double-stranded DNA, one strand shown; matrix: in vitro; concentration: 250 nM; setting: 60-bp whole probe; added: salmon DNA 0.4 mg/ml; reference: random background probes; reading: higher = stronger binding; shared flanks, not repeated: GCCTAGCACT … GTCTTGATTCGCTTGACGCTGCTG
Target: Interferon regulatory factor 5, full length, phosphomimetic (IRF5, Homo sapiens, UniProt Q13568-2, residues 1-514, K96S/S451D/S453D/S456D/S462D)
Strand	log fluorescence [z-score]
TAGGTTCCGGTTTCGGTTAGTGCTAG	9.28
TAGGACTGCATCTCCTTTAGTGCTAG	-0.305
GAGGTTTCGGACTGGGTTAGTGCTAG	3.47
TAGATTTCGGGGATCGATTAGTGCTA	2.8
CAAATTTTTTTCTAAGACTGTGCTAG	0.726
CACATCTCGGAGATCTCACTGTGCTA	0.0221
TAGGTTTCCTTTGCCTTTAGTGCTAG	0.72
TAGGACTGTGTATCGGTTAGTGCTAG	3.83

Series 2 — target: NFE2L2, bZIP domain (human); method: DHFR protein complementation; matrix: yeast; reference: wild-type JUN-FOS pair; reading: higher = stronger binding
Setting: single substitutions, most at no-binding floor
Starting sequence: JUN, bZIP domain (human); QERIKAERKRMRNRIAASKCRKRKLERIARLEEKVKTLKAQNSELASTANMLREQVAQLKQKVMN; partner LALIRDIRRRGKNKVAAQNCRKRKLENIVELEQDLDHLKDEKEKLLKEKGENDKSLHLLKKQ
Variant	binding fitness
V56Y	-1.47 natural log
L45Q	-1.45 natural log
L52Y	-1.56 natural log
N42D	-1.48 natural log
R53K	-1.14 natural log
E44M	-1.23 natural log
K34V	-1.34 natural log
M51R	-1.43 natural log

Series 3 — method: RNA Bind-n-Seq; molecule type: RNA; matrix: in vitro; concentration: 1 µM; setting: whole 134-nt RNA, ends assumed; added: 150 mM KCl; reference: input library; reading: higher = stronger binding
Target: Ras GTPase-activating protein-binding protein 1, C-terminal RGG region (G3BP1, Homo sapiens, UniProt Q13283)
Sequence of UniProt Q13283 (whole entry, looked up): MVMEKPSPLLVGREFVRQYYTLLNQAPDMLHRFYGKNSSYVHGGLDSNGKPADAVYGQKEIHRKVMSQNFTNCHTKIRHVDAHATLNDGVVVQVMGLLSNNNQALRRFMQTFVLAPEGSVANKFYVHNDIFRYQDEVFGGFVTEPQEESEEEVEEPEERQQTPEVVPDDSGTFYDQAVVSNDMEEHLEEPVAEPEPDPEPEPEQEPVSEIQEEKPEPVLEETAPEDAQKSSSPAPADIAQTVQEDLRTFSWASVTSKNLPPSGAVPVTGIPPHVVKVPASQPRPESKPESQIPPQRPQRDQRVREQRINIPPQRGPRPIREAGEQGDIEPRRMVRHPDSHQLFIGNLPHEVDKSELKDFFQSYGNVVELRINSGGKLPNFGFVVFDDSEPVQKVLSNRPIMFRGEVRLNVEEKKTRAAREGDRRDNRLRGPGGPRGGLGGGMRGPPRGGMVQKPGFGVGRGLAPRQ
Shared flanks, not repeated: GGGAGUUCUACAGUCCGACGAUC … UGGAAUUCUCGGGUGUCAAGG
Strand	log2 enrichment
CACAGACAACACGCACCGACACAGACACAGAGGGAAGGGGUUGGGAUGGGGACAGGGUGCACAGCAGGGCGGGGUAGGACCCCAGCCCCU	-0.355
CAAGUCCUGUGCUACACAUCGUAUGUACCGAAUCGGGGCCGGGCCGGGGCCGGGGAAAGUAUUAUGUUACGCCGUUCGGAUCUGCACUUC	-0.781
ACCAUGCAGGUGGGCAUCUUUGGGAAGUGGGGCAAGGGGGGGAUAGGGAUGGGGGUAACACUUUGGGAACAGGUGGUCCCAGGUCGUUUC	2.76
CACAGACAACACGCACCCACACAGACACAGAGGGAAGGGGUUAGGAUGGGGACAGGGUGCACAGCAGGGCGGGGUAGGACCCCAGCCCCU	0.0713
CUCAAGUCCUGUGCUACACAUCGUAUGUACCGAAUCGGAAAGGAAAGGAAAGGAAAGUAUUAUGUUACGCCGUUCGGAUCUGCACUUCCA	-1.5
ACCAUGCAGGUGGGCAUCUUUGGGAAGUAGGGCAAGGGGGGGAUAGGGAGGGGGGUAACACUUUGGGAACAGGUGGUCCCAGGUCGUUUC	-1.04
AAGUCCUGUGCUACACAUCGUAUGUACCGAAUCGGAAAAAAAGGAAAAAAAGGUGGAAAGUAUUAUGUUACGCCGUUCGGAUCUGCACUU	-1.81
UGGGAGGUGGAUUUUGUUUAUUUUUUUAGCUCAUUUCCAGGGGUGGGAAUUUUUUUUUAAUAUGUGUCAUGAAUAAAGAUGUUUUUGAAA	3.11

Mixed results
Compound	test system	conditions	measurement	result
CC(C)c1cc(C(=O)N2C[C@@H]3CC[C@H](C2)N(C)C3=O)c(O)c(C(C)C)c1	mouse, microsomes or S9	2 µM, 0.5 h	remaining compound	13%

Some of these lines once more (series 2):
Variant	binding fitness
E44M	-1.23 natural log
